Results collected from several papers.
Target: Myosin-IIIa (MYO3A, Homo sapiens, UniProt Q8NEV4)

Structure (SMILES) | test | setting | how to read | quantity | result
COc1cc(Nc2nc(C)cc(-c3cnn4nc(OC)ccc34)n2)cc(C(F)(F)F)c1 | inhibitor | 1 µM | relative to: control | remaining activity | 87%
C=CC(=O)N1CCCC(n2c(=O)c3ncccc3n(Cc3ccc(Oc4ccccc4)cc3)c2=O)C1 (stereo not drawn) | cell-free assay, competition with immobilised ligand | 1 µM |  | remaining binding | 100%
COc1c(Cl)cccc1Nc1c(-c2ccncc2C#C[C@@]2(C)CCCN2C(=O)/C=C/CN(C)C)[nH]c2c1C(=O)NCC2 | binding, competition with immobilised ligand | 3 µM |  | remaining binding | 92%
CN1CCN(Cc2ccc(-c3ccc(CO[C@H]4CCC[C@@H]4NC(=O)c4cc(-c5cnn(C)c5)cnc4N)cc3)cc2)CC1 | enzyme activity, inhibitor | 0.1 µM |  | inhibition | -2%
Nc1ncc(-c2cc(-c3cnn(CC(F)(F)F)c3)ncc2F)nc1C(=O)NC1CNCC(F)C1 (stereo not drawn) | enzyme activity | 1 µM | relative to: DMSO control | remaining activity | 79.9%
CC(C)=CC1OC(C)(C)C2C=C3C(=O)C(Cl)=CC(O)C3C3C(O)C4OC4C(=O)C132 (stereo not drawn) | cell-free assay, competition with immobilised ligand | 10 µM |  | remaining binding | 84%
C=CC(=O)N1Cc2nc(-c3cc(-c4cc(Cl)cnc4Cl)c(F)cc3F)n(-c3ccncn3)c2C1 | cell-free assay | 1 µM |  | inhibition | 6%
Cc1cnc2nc1Nc1cccc(c1)COC/C=C/COCc1cc(ccc1OCCN1CCOCC1)N2 | binding | 0.1 µM |  | remaining binding | 95%
Nc1ncc2c(n1)-c1c([nH]c3ccc(C4=CCOCC4)cc13)CCC2 | binding, competition with immobilised ligand | 1 µM |  | remaining binding | 88%
C=CC(=O)N1CCc2ccc(-n3c(=O)ccc4cnc5ccc(-c6cnn(C)c6)cc5c43)cc21 | KINOMEscan | 1 µM | relative to: DMSO control | remaining binding | 100%
CCN1CCN(Cc2ccc(C(=O)Nc3ccc(C)c(NCc4cnc5[nH]ccc5c4OC)c3)cc2C(F)(F)F)CC1 | binding, competition with immobilised ligand | 1 µM |  | remaining binding | 41%
CCn1cc(C(=O)O)c(=O)c2c(N)c(F)c(NC3CCCCC3)cc21 | kinase activity | 0.1 µM, together with: ATP at Km |  | inhibition | 12.8%
CNC1C[S+]2CC[S+]3CC[S+](C1)[Ru-4]321([N]=C=S)[n]2c3ccc(OC)cc3c3c4c(c5cc(F)c[n+]1c5c32)C(=O)NC4=O (stereo not drawn) | KinomeScan | 0.1 µM | relative to: untreated | remaining binding | 92%
CNC(=O)C1CCN(c2cc(C)c(F)cc2NC(=O)c2ccc(-c3cc(O)ccc3C)c(C)c2)CC1 | binding, competition with immobilised ligand | 1 µM |  | remaining binding | 100%
COc1cc(Nc2nccc(-c3cnn4nc(OC)ccc34)n2)cc(C(F)(F)F)c1 | binding, competition with immobilised ligand | 1 µM |  | remaining binding | 54%

For quick reference, copied from above:
Structure (SMILES) | test | setting | how to read | quantity | result
CCn1cc(C(=O)O)c(=O)c2c(N)c(F)c(NC3CCCCC3)cc21 | kinase activity | 0.1 µM, together with: ATP at Km |  | inhibition | 12.8%
